Assay results pooled from the literature.
Each line is one published result; not all experiments were run side by side. ± gives the spread as reported.

SMILES	target or system	assay	test system	conditions	quantity	value
N=C(N)NCc1ccc(C(=O)NCCCC[C@H](NC(=O)N[C@@H](CCC(=O)O)C(=O)O)C(=O)O)cc1[211At]			SCID mouse, PC-3 xenografts, spleen	2 h	tissue uptake	6.81 ± 3.2 %ID/g
CC(C)[C@H](NC(=O)CNC(=O)[C@H](CCC(N)=O)NC(=O)[C@H](C)N)C(=O)O		Possibly drug-related	human	10 mg/kg, 3 days, thrice daily dosing	subjects with adverse events	33.3%
CC[C@H](C)C(=O)N1CCC(NC(=O)Nc2ccc(OC(F)(F)F)c(F)c2)CC1			human, plasma	oral, 8 mg, single dose, fasted, healthy volunteers	CL/F	2.51 L/h
CSCC[C@H](NC(=O)CNC(=O)[C@H](CC(=O)O)NC(=O)[C@@H](NC(=O)[C@@H](NC(=O)[C@@H](NC(=O)CNC(=O)[C@H](CCC(N)=O)NC(=O)[C@H](CCSC)NC(=O)[C@H](CC(=O)O)NC(=O)[C@H](C)NC(=O)[C@H](C)NC(=O)[C@@H](NC(=O)[C@H](CO)NC(=O)[C@@H](N)CC(C)C)[C@@H](C)O)C(C)C)C(C)C)[C@@H](C)O)C(=O)N[C@@H](C)C(=O)N[C@@H](CO)C(=O)NCC(=O)N[C@@H](CC(C)C)C(=O)N[C@@H](CC(=O)O)C(=O)N[C@@H](CCCCN)C(=O)N[C@@H](CC(=O)O)C(=O)N[C@@H](Cc1ccc(O)cc1)C(=O)N[C@@H](CC(C)C)C(=O)N[C@@H](CCCCN)C(=O)N1CCC[C@H]1C(=O)N[C@@H](CC(=O)O)C(=O)N[C@@H](CC(=O)O)C(=O)O			human, serum	intravenous, 4.16 mg/kg, patients, infusion	clearance	18.7 mL/min/kg
COc1cc(NC(=O)C(=O)c2c(C)n(Cc3ccc(Cl)cc3)c3ccc(C)cc23)ccn1			female cynomolgus monkey, plasma	intravenous, 1 mg/kg	Vd	8.38 L/kg
O=c1cc(-c2ccccc2)oc2c(Br)c(O)c(O)c(O)c12			C57BL/6 mouse, plasma	po, 50 mg/kg	AUC extrapolated percentage	4.6 ± 1.1%
COc1cc(C(=O)NCCOCCOCCOCCNC(=O)c2ccc([18F])nc2)ccc1NC(=O)C1NC(CC(C)(C)C)C(C#N)(c2ccc(Cl)cc2F)C1c1cccc(Cl)c1F (stereo not shown)	SJSA-1 tumour model		host not given, spleen	1 h, tumour-bearing	tracer uptake	1.02 %ID/g
CC(C)C[C@H](NC(=O)[C@H](CCCCN)NC(=O)[C@H](CCC(=O)O)NC(=O)[C@H](C)NC(=O)[C@@H](NC(=O)[C@H](CCCCN)NC(=O)[C@H](CC(=O)O)NC(=O)[C@H](Cc1ccc(O)cc1)NC(=O)[C@H](Cc1ccccc1)NC(=O)[C@H](C)NC(=O)[C@H](CCCCN)NC(=O)[C@H](CC(C)C)NC(=O)[C@H](Cc1c[nH]c2ccccc12)NC(=O)[C@@H](N)CC(=O)O)C(C)C)C(=O)N[C@@H](CCCCN)C(=O)N[C@@H](CCC(=O)O)C(=O)N[C@@H](C)C(=O)N[C@@H](Cc1ccccc1)C(=O)N1CCC[C@H]1C(=O)N[C@@H](CC(=O)O)C(=O)N[C@@H](Cc1c[nH]c2ccccc12)C(=O)N[C@@H](C)C(=O)N[C@@H](CCCCN)C(=O)N[C@@H](C)C(=O)N[C@@H](C)C(=O)N[C@@H](Cc1ccc(O)cc1)C(=O)N[C@@H](CC(=O)O)C(=O)N[C@@H](CCCCN)C(=O)N[C@@H](C)C(=O)N[C@@H](C)C(=O)N[C@@H](CCC(=O)O)C(=O)N[C@@H](CCCCN)C(=O)N[C@@H](C)C(=O)N[C@@H](CCCCN)C(=O)N[C@@H](CCC(=O)O)C(=O)N[C@@H](C)C(=O)N[C@@H](C)C(=O)O			cynomolgus monkey female, plasma	intravenous infusion, 75 mg/kg every other day, day 27	Tmax	0 h
CCCCCCCCCCCCC(=O)O.O=C1CCCC2C3CCCN4CCCC(CN12)C34 (stereo not shown)		electrical conductivity	water	308.15 K, critical micelle concentration	entropic term −TΔS of micellization	-7.89 kcal/mol
O=C(c1ccc(F)cc1)C1CCN(C2Cc3c(cccc3OCC[18F])CC2O)CC1 (single isomer, unassigned; (-))			Sprague-Dawley rat, male, spleen	intravenous, dose not given, 120 min	tissue uptake	0.376 ± 0.034 %ID/g
COC(=O)C[C@H](NC(=O)[C@H](C)NC(=O)[C@@H](NC(=O)[C@H](CC(=O)OC)NC(=O)[C@@H](NC(=O)c1ccc2ccccc2n1)C(C)C)C(C)C)C(=O)COc1c(F)cccc1F		TUNEL	rat pups, brain	1 mg/kg	developmental cell death	no effect
CN[C@](C)(C[18F])C(=O)O	SK-OV-3 tumour model		host not given, tumour	1 h, tumour-bearing	tracer uptake	13 %ID/g
CC(=O)N[C@@H](CCCCN)C(=O)N[C@H](C(=O)NCC(=O)N[C@@H](CC(=O)O)C(=O)N[C@@H](CCC(=O)O)C(=O)N[C@@H](CCCCN)C(=O)N[C@@H](CCCCN)C(=O)NCC(=O)NCC(=O)N[C@@H](Cc1ccc(O)cc1)C(=O)NCC(=O)N[C@@H](CCCNC(=N)N)C(=O)N[C@@H](CCCCN)C(=O)N[C@@H](CCCCN)C(=O)N[C@@H](CCCNC(=N)N)C(=O)N[C@@H](CCCNC(=N)N)C(=O)N[C@@H](CCC(N)=O)C(=O)N[C@@H](CCCNC(=N)N)C(=O)N[C@@H](CCCNC(=N)N)C(=O)N[C@@H](CCCNC(=N)N)C(N)=O)[C@@H](C)O			PBS	up to 24 h, pH 7.4, 80 °C	HPLC purity	100%
Cc1cccc(-c2cccc(C)n2)n1.[Cl-].[Cl-].[Ru+2].c1ccc(-c2ccccn2)nc1.c1ccc(-c2ccccn2)nc1			phosphate buffer with NaCl	pH 7.4, 37 °C, photoactivated, dialysis	release from nanoassemblies	65.8%
C[C@]12CC[C@H](OC(=O)NC3CCNCC3)C[C@H]1CC[C@@H]1[C@@H]2CC[C@]2(C)[C@@H](c3ccc(=O)oc3)CC[C@]12O			male Sprague-Dawley rats, plasma	intravenous, 5 mg/kg	volume of distribution	1.37 ± 0.45 L/kg
CCCC(CCC)C(=O)OC1O[C@@H]2O[C@@]3(C)CC[C@H]4[C@H](C)CCC([C@H]1C)[C@@]24OO3 (stereo partly shown)			Tg(fli1:EGFP) zebrafish embryos	5.0 µg/mL, up to 48 hpf	dead embryos	9 count
CC(C)[C@H](NC(=O)[C@H](Cc1c[nH]c2ccccc12)NC(=O)[C@H](Cc1ccccc1)NC(=O)[C@@H](NC(=O)[C@@H](NC(=O)[C@H](CCCCN)NC(=O)[C@@H](N)CCCCN)C(C)C)C(C)C)C(=O)N[C@@H](CCCCN)C(=O)N[C@@H](Cc1ccccc1)C(=O)N[C@@H](CCCCN)C(N)=O		ELISA, refers to: TNF-α	mouse, blood	intravenous, 500 µg/kg, 5 days	cytokine level	205 ± 17.4 pg/mL
CC[C@H](C)[C@H](NC(=O)[C@H](CCC(=O)O)NC(=O)[C@H](CCC(=O)O)NC(=O)[C@H](Cc1ccccc1)NC(=O)[C@H](CC(=O)O)NC(=O)CNC(=O)[C@H](CC(N)=O)NC(=O)CNC(=O)CNC(=O)CNC(=O)CNC(=O)[C@@H]1CCCN1C(=O)[C@H](CCCNC(=N)N)NC(=O)[C@@H]1CCCN1C(=O)[C@H](N)Cc1ccccc1)C(=O)N1CCC[C@H]1C(=O)N[C@@H](CCC(=O)O)C(=O)N[C@@H](CCC(=O)O)C(=O)N[C@@H](Cc1ccc(O)cc1)C(=O)N[C@@H](CC(C)C)C(=O)O			male human, plasma	intravenous, 0.5 mg/kg, single dose, healthy volunteers	clearance	5.8 mL/min/kg
CC(C)C[C@@H](NC(=O)[C@@H](CCCCN)NC(=O)CNC(=O)CNC(=O)[C@@H]1CSSC[C@H](N)C(=O)NCC(=O)N[C@@H](CCCNC(=N)N)C(=O)N[C@@H](CCCNC(=N)N)C(=O)N[C@@H](C)C(=O)NCC(=O)NCC(=O)N[C@@H](CO)C(=O)N1)C(=O)N[C@H](C)C(=O)N[C@H](CCCCN)C(=O)N[C@H](CC(C)C)C(=O)N[C@H](C)C(=O)N[C@H](CCCCN)C(=O)N[C@H](CCCCN)C(=O)N[C@H](CC(C)C)C(=O)N[C@H](C)C(=O)N[C@H](CCCCN)C(=O)N[C@H](CC(C)C)C(=O)N[C@H](C)C(=O)N[C@H](CCCCN)C(=O)O			cynomolgus monkey, plasma	intravenous, 9 mg/kg, infusion	Vd	2.58 L
CC(C)C[C@H](NC(=O)CN)C(=O)NCC(=O)N[C@@H](CCCCN)C(=O)N[C@@H](CC(C)C)C(=O)N[C@@H](CC(C)C)C(=O)N[C@@H](Cc1c[nH]cn1)C(=O)N[C@@H](C)C(=O)N[C@@H](C)C(=O)N[C@@H](CCCCN)C(=O)N[C@@H](CCCCN)C(=O)N[C@@H](CC(C)C)C(=O)NCC(=O)N[C@@H](CCCCN)C(=O)N[C@@H](C)C(=O)N[C@@H](Cc1c[nH]c2ccccc12)C(=O)N[C@@H](CC(C)C)C(=O)NCC(=O)N[C@@H](CCC(=O)O)C(=O)N[C@@H](CC(C)C)C(=O)N[C@@H](CC(C)C)C(=O)N[C@@H](C)C(=O)N[C@@H](C)C(=O)O		circular dichroism	phosphate buffer 10 mM	1 to 5 µM, pH 7.5, approximate	helicity	~10%
CSCC[C@@H]1NC(=O)[C@@H]2CSSC[C@H](NC(=O)[C@H](CO)NC(=O)[C@H](C)N)C(=O)N[C@@H](CCCNC(=N)N)C(=O)N[C@@H]([C@@H](C)O)C(=O)N3CCC[C@H]3C(=O)N[C@@H](CCCCN)C(=O)N[C@@H](CC(=O)O)C(=O)N[C@H]3CSSC[C@H](NC(=O)[C@H](CCCCN)NC(=O)[C@H](CCCNC(=N)N)NC(=O)[C@H](CC(N)=O)NC1=O)C(=O)N[C@@H](CCCCN)C(=O)N[C@H]1CSSC[C@H](NC(=O)[C@@H]4CCCN4C(=O)[C@H](CC(=O)O)NC(=O)[C@H](C)NC3=O)C(=O)N[C@@H](C)C(=O)N[C@@H](CCCCN)C(=O)N[C@@H](CCC(=O)O)C(=O)N[C@@H]([C@@H](C)O)C(=O)NCC(=O)N[C@@H](CSSC[C@@H](C(N)=O)NC(=O)[C@H](CCCNC(=N)N)NC(=O)[C@H](CC(N)=O)NC1=O)C(=O)N1CCC[C@H]1C(=O)N[C@@H](Cc1ccc(O)cc1)C(=O)NCC(=O)N[C@@H](CCCCN)C(=O)N2			DA rat, pristane-induced arthritis, serum	subcutaneous, single 0.1 mg/kg at onset, end of 21-day trial	albumin	3.76 g/dL
COC(=O)C=CCCC(NC(=O)c1ccncc1C(=O)O)C(=O)NC(C(=O)N1CC(=O)CC1C(=O)NC(C(=O)NC(C(N)=O)C1CCCCC1)C1CCCCC1)C(C)(C)C (stereo not shown)			New Zealand White rabbits, male, plasma	intravenous bolus plus infusion, dose not given, 15 min, at initiation of stasis	plasma concentration	11.8 ± 1.2 µM

Repeated from above:
SMILES	target or system	assay	test system	conditions	quantity	value
COC(=O)C[C@H](NC(=O)[C@H](C)NC(=O)[C@@H](NC(=O)[C@H](CC(=O)OC)NC(=O)[C@@H](NC(=O)c1ccc2ccccc2n1)C(C)C)C(C)C)C(=O)COc1c(F)cccc1F		TUNEL	rat pups, brain	1 mg/kg	developmental cell death	no effect
CN[C@](C)(C[18F])C(=O)O	SK-OV-3 tumour model		host not given, tumour	1 h, tumour-bearing	tracer uptake	13 %ID/g
